Assay results from different studies.
Lines come from different studies, so protocols differ. ± marks the error that the study gave.
HDAC6: Protein deacetylase HDAC6 (HDAC6, Homo sapiens, UniProt Q9UBN7)
Chain of UniProt Q9UBN7 (whole entry, looked up): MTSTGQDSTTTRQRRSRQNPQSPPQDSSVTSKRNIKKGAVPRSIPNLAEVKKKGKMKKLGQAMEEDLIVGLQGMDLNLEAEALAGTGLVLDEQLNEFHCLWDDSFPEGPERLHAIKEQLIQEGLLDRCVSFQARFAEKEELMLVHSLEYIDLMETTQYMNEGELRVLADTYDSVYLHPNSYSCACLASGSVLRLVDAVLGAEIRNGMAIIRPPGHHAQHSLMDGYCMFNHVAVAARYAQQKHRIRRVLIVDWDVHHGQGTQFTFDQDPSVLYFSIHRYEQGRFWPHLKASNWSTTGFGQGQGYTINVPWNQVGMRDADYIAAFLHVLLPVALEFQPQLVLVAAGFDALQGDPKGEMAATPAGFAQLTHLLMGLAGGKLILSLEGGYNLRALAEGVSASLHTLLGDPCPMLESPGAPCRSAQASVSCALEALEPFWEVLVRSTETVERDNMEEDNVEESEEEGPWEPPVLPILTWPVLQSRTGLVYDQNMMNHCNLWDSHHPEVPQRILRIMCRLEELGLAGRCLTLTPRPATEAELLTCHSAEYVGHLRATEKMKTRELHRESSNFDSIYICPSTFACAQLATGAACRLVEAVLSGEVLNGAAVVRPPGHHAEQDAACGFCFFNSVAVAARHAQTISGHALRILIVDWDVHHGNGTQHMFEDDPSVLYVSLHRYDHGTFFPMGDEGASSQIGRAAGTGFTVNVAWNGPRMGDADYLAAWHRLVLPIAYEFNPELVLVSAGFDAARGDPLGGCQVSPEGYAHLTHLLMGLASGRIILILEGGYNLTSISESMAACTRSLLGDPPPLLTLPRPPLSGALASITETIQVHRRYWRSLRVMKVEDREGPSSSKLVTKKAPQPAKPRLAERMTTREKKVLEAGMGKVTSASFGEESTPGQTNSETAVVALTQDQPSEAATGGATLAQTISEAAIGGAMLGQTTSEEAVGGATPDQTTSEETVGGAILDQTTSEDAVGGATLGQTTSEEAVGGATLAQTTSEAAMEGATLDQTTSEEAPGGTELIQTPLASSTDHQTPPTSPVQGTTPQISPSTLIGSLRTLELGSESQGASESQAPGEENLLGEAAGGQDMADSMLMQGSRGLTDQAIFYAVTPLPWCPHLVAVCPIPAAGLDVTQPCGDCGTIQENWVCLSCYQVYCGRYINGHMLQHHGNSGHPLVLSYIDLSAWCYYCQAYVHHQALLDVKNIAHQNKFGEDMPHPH
P4HB: Protein disulfide-isomerase (P4HB, Homo sapiens, UniProt P07237)
Chain of UniProt P07237 (whole entry, looked up): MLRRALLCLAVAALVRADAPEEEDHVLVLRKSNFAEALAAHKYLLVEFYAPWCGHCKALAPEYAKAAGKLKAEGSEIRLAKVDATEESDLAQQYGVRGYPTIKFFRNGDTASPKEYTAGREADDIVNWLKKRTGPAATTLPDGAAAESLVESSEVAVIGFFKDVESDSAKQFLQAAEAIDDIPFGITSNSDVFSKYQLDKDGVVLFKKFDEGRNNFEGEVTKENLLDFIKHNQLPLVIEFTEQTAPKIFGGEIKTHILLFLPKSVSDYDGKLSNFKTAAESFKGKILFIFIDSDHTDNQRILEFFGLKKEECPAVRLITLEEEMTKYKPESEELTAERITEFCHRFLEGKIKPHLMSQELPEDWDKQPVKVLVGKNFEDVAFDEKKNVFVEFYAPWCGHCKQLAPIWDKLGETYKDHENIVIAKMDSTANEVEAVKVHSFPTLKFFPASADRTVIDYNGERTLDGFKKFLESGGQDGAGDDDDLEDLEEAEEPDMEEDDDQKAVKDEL
CPL: CPL (Toxoplasma gondii, UniProt Q6DMN0)
AR: Androgen receptor (AR, Homo sapiens, UniProt P10275)
Chain of UniProt P10275 (whole entry, unmodified, looked up): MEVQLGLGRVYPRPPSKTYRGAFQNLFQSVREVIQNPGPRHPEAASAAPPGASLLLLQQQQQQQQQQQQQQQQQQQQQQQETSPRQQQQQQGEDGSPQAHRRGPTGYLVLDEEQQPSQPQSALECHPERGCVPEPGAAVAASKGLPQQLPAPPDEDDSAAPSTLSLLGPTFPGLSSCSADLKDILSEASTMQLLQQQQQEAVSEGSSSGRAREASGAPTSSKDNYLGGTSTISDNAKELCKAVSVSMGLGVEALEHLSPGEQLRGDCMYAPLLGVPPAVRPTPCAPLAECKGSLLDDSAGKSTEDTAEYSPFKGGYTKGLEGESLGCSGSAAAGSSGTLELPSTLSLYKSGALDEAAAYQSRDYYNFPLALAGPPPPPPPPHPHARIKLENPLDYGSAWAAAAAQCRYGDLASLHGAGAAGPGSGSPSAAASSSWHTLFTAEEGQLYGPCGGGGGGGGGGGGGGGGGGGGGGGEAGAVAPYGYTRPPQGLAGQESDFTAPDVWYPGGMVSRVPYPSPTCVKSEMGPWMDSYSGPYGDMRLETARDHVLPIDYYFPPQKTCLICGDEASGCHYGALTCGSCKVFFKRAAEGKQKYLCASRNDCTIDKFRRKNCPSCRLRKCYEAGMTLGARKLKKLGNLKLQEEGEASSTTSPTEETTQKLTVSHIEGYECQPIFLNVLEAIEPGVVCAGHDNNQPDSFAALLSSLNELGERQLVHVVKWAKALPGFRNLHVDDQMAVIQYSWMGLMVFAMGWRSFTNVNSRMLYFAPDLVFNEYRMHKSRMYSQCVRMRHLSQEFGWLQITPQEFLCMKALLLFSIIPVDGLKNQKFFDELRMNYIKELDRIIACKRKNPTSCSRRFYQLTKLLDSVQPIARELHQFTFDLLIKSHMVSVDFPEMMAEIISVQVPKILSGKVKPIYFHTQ
Chain of UniProt P21447 (whole entry, unmodified, looked up): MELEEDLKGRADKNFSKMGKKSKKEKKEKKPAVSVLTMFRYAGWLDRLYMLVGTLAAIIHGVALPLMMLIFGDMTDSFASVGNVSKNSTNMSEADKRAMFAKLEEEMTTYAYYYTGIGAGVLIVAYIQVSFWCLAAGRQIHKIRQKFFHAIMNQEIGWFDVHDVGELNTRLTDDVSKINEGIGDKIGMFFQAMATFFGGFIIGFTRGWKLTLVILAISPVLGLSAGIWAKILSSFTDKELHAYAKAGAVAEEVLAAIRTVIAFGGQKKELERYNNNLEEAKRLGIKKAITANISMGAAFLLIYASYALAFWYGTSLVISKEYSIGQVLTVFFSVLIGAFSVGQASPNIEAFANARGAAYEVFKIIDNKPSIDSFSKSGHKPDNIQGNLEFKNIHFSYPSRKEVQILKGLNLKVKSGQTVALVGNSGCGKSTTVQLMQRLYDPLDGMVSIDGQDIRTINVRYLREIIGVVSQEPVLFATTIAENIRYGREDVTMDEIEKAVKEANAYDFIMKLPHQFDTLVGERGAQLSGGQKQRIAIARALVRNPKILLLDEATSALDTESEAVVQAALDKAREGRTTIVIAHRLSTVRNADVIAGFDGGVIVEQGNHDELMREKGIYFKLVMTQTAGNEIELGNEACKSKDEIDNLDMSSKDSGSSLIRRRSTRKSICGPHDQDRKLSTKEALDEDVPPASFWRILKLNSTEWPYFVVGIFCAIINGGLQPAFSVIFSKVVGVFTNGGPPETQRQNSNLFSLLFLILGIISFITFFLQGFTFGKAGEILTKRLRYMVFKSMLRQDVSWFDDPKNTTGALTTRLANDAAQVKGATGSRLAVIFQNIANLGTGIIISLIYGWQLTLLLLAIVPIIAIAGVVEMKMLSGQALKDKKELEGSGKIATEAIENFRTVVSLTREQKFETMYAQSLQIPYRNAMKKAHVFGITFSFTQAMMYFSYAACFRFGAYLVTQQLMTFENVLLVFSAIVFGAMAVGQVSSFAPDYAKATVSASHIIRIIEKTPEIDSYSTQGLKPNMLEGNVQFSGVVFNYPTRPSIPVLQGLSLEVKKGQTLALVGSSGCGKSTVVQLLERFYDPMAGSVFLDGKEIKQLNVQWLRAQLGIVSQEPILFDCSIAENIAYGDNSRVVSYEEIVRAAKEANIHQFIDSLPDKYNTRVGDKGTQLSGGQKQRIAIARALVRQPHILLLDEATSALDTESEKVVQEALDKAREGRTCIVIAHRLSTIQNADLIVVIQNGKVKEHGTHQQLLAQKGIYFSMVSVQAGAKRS
Chain of UniProt O00748 (whole entry, looked up): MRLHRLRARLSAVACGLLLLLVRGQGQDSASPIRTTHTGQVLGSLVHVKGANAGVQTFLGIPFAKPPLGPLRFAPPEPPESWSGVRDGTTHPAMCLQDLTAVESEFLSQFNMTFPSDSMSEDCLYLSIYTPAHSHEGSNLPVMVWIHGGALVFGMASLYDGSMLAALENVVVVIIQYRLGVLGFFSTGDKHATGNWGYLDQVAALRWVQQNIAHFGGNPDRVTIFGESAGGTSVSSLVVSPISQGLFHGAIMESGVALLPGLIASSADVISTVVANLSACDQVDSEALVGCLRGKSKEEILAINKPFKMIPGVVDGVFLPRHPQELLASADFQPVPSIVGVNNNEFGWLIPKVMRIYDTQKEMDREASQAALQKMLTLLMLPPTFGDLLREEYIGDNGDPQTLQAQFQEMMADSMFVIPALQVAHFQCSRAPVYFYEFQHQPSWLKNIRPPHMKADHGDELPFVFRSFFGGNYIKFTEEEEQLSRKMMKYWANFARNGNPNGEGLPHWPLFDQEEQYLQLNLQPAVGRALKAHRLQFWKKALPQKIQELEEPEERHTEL
Chain of UniProt O15379 (whole entry, looked up): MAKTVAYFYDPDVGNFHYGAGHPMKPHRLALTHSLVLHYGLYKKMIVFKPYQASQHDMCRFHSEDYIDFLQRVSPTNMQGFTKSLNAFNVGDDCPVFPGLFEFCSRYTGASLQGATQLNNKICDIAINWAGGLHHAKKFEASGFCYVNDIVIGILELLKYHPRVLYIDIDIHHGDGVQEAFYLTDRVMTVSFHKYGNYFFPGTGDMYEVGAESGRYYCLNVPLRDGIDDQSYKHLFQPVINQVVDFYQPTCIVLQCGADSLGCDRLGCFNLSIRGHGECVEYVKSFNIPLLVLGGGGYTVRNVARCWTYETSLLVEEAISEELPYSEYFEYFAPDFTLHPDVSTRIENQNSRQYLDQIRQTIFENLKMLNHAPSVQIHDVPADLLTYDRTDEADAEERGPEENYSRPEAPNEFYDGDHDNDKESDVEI

With `C=CCOC(=O)NCCCC[C@H](NC(=O)[C@H](Cc1ccc(O)cc1)NC(=O)CNC(=O)CNC(=O)[C@@H](NC(=O)[C@H](CO)NC(=O)[C@@H]1CCCN1C(=O)[C@H](C)NC(=O)[C@H](CO)NC(=O)[C@H](CCSC)NC(=O)[C@H](CCCNC(=N)N)NC(=O)[C@H](C)NC(=O)[C@H](C)NC(=O)[C@H](CCCCN)NC(C)=O)[C@@H](C)O)C(=O)NN` the IC50 was 56 µM (EZH2 (Homo sapiens, UniProt Q15910); enzyme activity, inhibitor, radiometric).
For `CC(C)P(=S)(NP(=S)(C(C)C)C(C)C)C(C)C`, the IC50 was 268 µM (Alpha-amylase (Bacillus subtilis, UniProt P00691); enzyme activity, inhibitor, absorbance; pH 6.9).
With `Cc1ccc2c(n1)c(-c1cccc(S(C)(=O)=O)c1)c(C)n2C/C(F)=C/CN` the IC50 was 0.833 µM (Protein-lysine 6-oxidase (Homo sapiens, UniProt P28300); enzyme activity, inhibitor, fluorescence; with preincubation).
With `CCC(C)SSc1ncc[nH]1` (stereo not shown) the IC50 was greater than 60 µM (genome polyprotein, 2A protease (Enterovirus D68, UniProt A0A097BW19); enzyme activity, inhibitor, FRET; with 4 mM DTT).
`C#Cc1ccc(N2CCNCC2)cc1` gave an IC50 of 142 µM (Endothiapepsin (EAPA, Cryphonectria parasitica, UniProt P11838); enzyme activity, inhibitor, fluorescence).
The IC50 of `N[C@H](C(=O)N1CCCC1)C1CCN(c2nccc3c(-c4ncc(Cl)cc4Cl)cccc23)CC1` is reported as 3.09 µM (PADI2 (Homo sapiens, UniProt Q9Y2J8); enzyme activity, inhibitor, absorbance).
`Cc1cccc(C(c2c[nH]c3ccccc23)C(C#N)C#N)c1` (stereo not shown) gave an IC50 of 9.01 ± 2.49 µM (Cocaine esterase (CES2, Homo sapiens, UniProt O00748); enzyme activity, inhibitor; human liver microsomes; pH 7.4, 37 °C, together with: fluorescein diacetate).
With `O=C(CCCCCCC(=O)Nc1ccccc1N=Nc1ccccc1)NO` the IC50 was 0.21 ± 0.08 µM (HDAC6; enzyme activity, inhibitor; cis isomer, irradiated).
With `CC(C)=C/C=C/[C@@H](C)[C@H]1CC[C@@H]2[C@]1(C)CC[C@H]1[C@]23C=C[C@]2(C[C@@H](O)CC[C@]12C)OO3` the IC50 was 23 µM (PTPN2 (Homo sapiens, UniProt P17706); enzyme activity, inhibitor, absorbance).
With `CN(C)C(=O)C1CN1S(=O)(=O)c1ccc(F)cc1F` (stereo not shown) the IC50 was 5 µM (P4HB; enzyme activity, inhibitor, absorbance; pH 7.6).
`CC[C@@H]1C(=O)N(C)c2cnc(Nc3ccc(C(=O)NCCCC[C@H](NC(=O)COCCOCCNC(=O)COCCOCCNC(=O)COCCOCCNC(=O)COCCOCCNC(=O)[C@@H](NC(=O)[C@H](CO)NC(=O)[C@H](Cc4cncn4CCCCCCCCc4ccccc4)NC(=O)[C@H](CC(C)C)NC(=O)[C@@H]4CCCN4C(C)=O)[C@@H](C)OP(=O)(O)O)C(N)=O)cc3OC)nc2N1C1CCCC1` has an IC50 of 9.9 µM (ALK (Homo sapiens, UniProt Q9UM73, C1156Y); enzyme activity, inhibitor).
The IC50 of `Nn1c(-c2ccc(-n3nc(-c4ccccc4O)nc3-c3ccccc3O)cc2)n[nH]c1=S` is reported as 0.07 µM (PTGS2 (Homo sapiens, UniProt P35354); enzyme activity, inhibitor).
`Cc1ccc(C(=O)Nc2cccc3cnccc23)cc1S(=O)(=O)N1CCCCC1` has an IC50 of 36.1 µM (Trpv1 (Rattus norvegicus, UniProt O35433); ion current, antagonist, two-electrode voltage clamp; oocytes).
`COC(=O)C1CN1S(=O)(=O)c1c(C)cc(C)cc1C` (stereo not shown) has an IC50 of 6.8 µM (P4HB; enzyme activity, inhibitor, absorbance; pH 7.6).
The IC50 of `CC(C)CCN(Cc1ccccc1)c1nc(C#N)nc(N2CCOCC2)n1` is reported as 0.101 µM (CPL; enzyme activity, inhibitor, Z-L-R-AMC hydrolysis fluorescence).
`O=C(Nc1ccccc1)c1ccccc1O` gave an IC50 of greater than 10 µM (HDAC3 (Homo sapiens, UniProt O15379); enzyme activity, inhibitor, fluorescence).
`O=C(CCCCCCC(=O)Nc1ccc(N=Nc2ccccc2)cc1)NO` gave an IC50 of 0.048 ± 0.014 µM (HDAC6; enzyme activity, inhibitor; cis isomer, irradiated).
`O=C(O)c1ccccc1Nc1ccc(Oc2ccccc2)cc1` has an IC50 of greater than 100 µM (AR; reporter gene, antagonist, MMTV-Luc reporter; MDA-kb2; 20 h, together with: 8 nM DHT (EC90)).
`CC1(C(=O)O)CCCC2(C)C1CCC1(C)c3cocc3CCC12` (stereo not shown) has an IC50 of 4.2 µM (Androgen receptor (AR, Homo sapiens, UniProt P10275, T878A); transcriptional activity, antagonist, ARR3-luciferase reporter; LNCaP (AR T877A); 48 h, together with: R1881 1 nM).
With `C=CCCC[C@](C)(N)C(=O)N[C@@H](C)C(=O)N[C@@H](Cc1ccc(O)cc1)C(=O)N[C@@H](Cc1ccccc1)C(=O)N[C@@](C)(CCCC=C)C(=O)N[C@@H](CC(C)C)C(=O)N[C@@H](CCCCN)C(=O)N[C@@H](CC(C)C)C(=O)N[C@@H](C)C(=O)NCC(=O)N[C@@H](CCCNC(=N)N)C(=O)N[C@@H](Cc1c[nH]c2ccccc12)C(N)=O` the IC50 was 26 µM (PC4 and SFRS1-interacting protein, with HIV integrase (Homo sapiens, UniProt O75475); LEDGF/p75-integrase interaction, inhibitor).
`O=C(O)c1ccccc1Nc1ccc(Oc2ccc(F)cc2)cc1` gave an IC50 of 3.5 ± 2.4 µM (AR; reporter gene, antagonist, MMTV-Luc reporter; MDA-kb2; 20 h, together with: 0.2 nM DHT (EC50)).
For `CC(C)CCN(CCc1ccccc1)c1nc(C#N)nc(N2CCOCC2)n1`, the IC50 was 0.11 µM (CPL; enzyme activity, inhibitor, Z-L-R-AMC hydrolysis fluorescence).
`O=C[C@H](C[C@H]1CCNC1=O)NC(=O)[C@H](Cc1ccccc1)NC(=O)OCc1ccccc1` has an IC50 of 0.11 ± 0.02 µM (Genome polyprotein, 3C protease (Human enterovirus D68, UniProt Q68T42); 3C protease activity, inhibitor, FRET).
`C[C@@H]1CCN(c2nc3cc(Cl)ccc3o2)CCN1S(=O)(=O)c1ccccc1` gave an IC50 of 0.57 µM (HCRTR1 (Homo sapiens, UniProt O43613); calcium signal, antagonist, fluorescence).
For `CCCCCc1c(CC=C(C)C)c(OCC=C(C)C)c2c(c1CC=C(C)C)OC(C)(C)C1=C2[C@@H](O)[C@@](C)(O)CC1`, the IC50 was greater than 6000 µM (Si (Rattus norvegicus, UniProt P23739); enzyme activity, inhibitor, absorbance).
With `Cn1nc(-c2ccc3ccccc3c2)cc1[C@H]1CN2CC[C@@H]1C[C@@H]2CNCc1ccco1` the IC50 was 0.02 µM (DNA topoisomerase 2-binding protein 1, BRCT7-8 domains (TOPBP1, Homo sapiens, UniProt Q92547); inhibitor, streptavidin pulldown, immunoblotting).
`CC[C@H](C)[C@H](NC(=O)[C@H](C)N)C(=O)N[C@@H](CCCNC(=N)N)C(=O)N[C@@H](CCC(N)=O)C(=O)N[C@H](C(=O)N[C@@H](Cc1c[nH]cn1)C(=O)N[C@@H](CC(N)=O)C(=O)N[C@H](C(=O)N[C@@H](Cc1ccccc1)C(=O)N[C@@H](Cc1ccccc1)C(=O)N[C@@H](Cc1ccccc1)C(=O)N[C@@H](CC(C)C)C(=O)N[C@@H](Cc1ccccc1)C(=O)N[C@@H](CCCCN)C(=O)N[C@@H](CCCNC(=N)N)C(=O)N[C@@H](CCCNC(=N)N)C(=O)O)[C@@H](C)CC)[C@@H](C)O` gave an IC50 of greater than 10 µM (histidine kinase ComD (Streptococcus pneumoniae serotype 4, UniProt A0A0H2US84); reporter gene, antagonist; Streptococcus pneumoniae, TIGR4 comX::lacZ; 30 min, 37 °C, together with: CSP2 250 nM).
For `COC(=O)C=CCCC(NC(=O)c1ccncc1C(=O)O)C(=O)NC(C(=O)N1CC(=O)CC1C(=O)NC(C(=O)NC(C(N)=O)C1CCCCC1)C1CCCCC1)C(C)(C)C` (stereo not shown), the IC50 was 0.024 ± 0.0015 µM (F13A1 (Homo sapiens, UniProt P00488); transamidase activity, inhibitor; together with: dansylcadaverine, N,N-dimethylcasein).
With `Fc1ncc(C2CC3CCC2N3)cc1-c1ccncc1` (racemic) the IC50 was 1.4 µM (Neuronal acetylcholine receptor; alpha4/beta2 (Rattus norvegicus, UniProt P09483+P12390); ion current, antagonist, two-electrode voltage clamp; oocytes).
`Clc1ccc(C(c2ccc(Cl)cc2)C(Cl)(Cl)Cl)cc1` has an IC50 of 25.6 µM (Abcb1a (Mus musculus, UniProt P21447, N83Q/N87Q/N90Q); ATPase activity, inhibitor; purified recombinant protein; 5 min, pH 7.5, together with: verapamil 100 µM).
For `CC(C)C[C@@H](NC(=O)CNC(=O)/C=C/c1ccco1)C(N)=O`, the IC50 was 146 µM (Mycosin-1 (Mycolicibacterium thermoresistibile, UniProt G7CDQ2); enzyme activity, inhibitor).

Repeated from above:
The IC50 of `CC(C)CCN(Cc1ccccc1)c1nc(C#N)nc(N2CCOCC2)n1` is reported as 0.101 µM (CPL; enzyme activity, inhibitor, Z-L-R-AMC hydrolysis fluorescence).
The IC50 of `Nn1c(-c2ccc(-n3nc(-c4ccccc4O)nc3-c3ccccc3O)cc2)n[nH]c1=S` is reported as 0.07 µM (PTGS2 (Homo sapiens, UniProt P35354); enzyme activity, inhibitor).
